# Assay results of several laboratories.
# Values joined by “and” are separate records of one study, mostly repeats; a detail may differ. ± gives the spread as reported.
# SIRT5: NAD-dependent protein deacylase sirtuin-5, mitochondrial (SIRT5, Homo sapiens, UniProt Q9NXA8)
# Chain of UniProt Q9NXA8 (whole entry, looked up): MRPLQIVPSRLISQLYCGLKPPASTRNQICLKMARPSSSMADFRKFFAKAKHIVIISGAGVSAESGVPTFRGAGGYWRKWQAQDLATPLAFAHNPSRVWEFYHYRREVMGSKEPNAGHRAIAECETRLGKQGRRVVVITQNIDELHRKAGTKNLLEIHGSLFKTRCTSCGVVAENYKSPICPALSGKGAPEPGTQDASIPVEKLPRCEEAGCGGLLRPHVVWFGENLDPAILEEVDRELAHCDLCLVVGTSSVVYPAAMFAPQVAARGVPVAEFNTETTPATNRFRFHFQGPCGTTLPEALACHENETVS
# TNKS: Poly [ADP-ribose] polymerase tankyrase-1 (TNKS, Homo sapiens, UniProt O95271)
# Chain of UniProt O95271 (whole entry, looked up): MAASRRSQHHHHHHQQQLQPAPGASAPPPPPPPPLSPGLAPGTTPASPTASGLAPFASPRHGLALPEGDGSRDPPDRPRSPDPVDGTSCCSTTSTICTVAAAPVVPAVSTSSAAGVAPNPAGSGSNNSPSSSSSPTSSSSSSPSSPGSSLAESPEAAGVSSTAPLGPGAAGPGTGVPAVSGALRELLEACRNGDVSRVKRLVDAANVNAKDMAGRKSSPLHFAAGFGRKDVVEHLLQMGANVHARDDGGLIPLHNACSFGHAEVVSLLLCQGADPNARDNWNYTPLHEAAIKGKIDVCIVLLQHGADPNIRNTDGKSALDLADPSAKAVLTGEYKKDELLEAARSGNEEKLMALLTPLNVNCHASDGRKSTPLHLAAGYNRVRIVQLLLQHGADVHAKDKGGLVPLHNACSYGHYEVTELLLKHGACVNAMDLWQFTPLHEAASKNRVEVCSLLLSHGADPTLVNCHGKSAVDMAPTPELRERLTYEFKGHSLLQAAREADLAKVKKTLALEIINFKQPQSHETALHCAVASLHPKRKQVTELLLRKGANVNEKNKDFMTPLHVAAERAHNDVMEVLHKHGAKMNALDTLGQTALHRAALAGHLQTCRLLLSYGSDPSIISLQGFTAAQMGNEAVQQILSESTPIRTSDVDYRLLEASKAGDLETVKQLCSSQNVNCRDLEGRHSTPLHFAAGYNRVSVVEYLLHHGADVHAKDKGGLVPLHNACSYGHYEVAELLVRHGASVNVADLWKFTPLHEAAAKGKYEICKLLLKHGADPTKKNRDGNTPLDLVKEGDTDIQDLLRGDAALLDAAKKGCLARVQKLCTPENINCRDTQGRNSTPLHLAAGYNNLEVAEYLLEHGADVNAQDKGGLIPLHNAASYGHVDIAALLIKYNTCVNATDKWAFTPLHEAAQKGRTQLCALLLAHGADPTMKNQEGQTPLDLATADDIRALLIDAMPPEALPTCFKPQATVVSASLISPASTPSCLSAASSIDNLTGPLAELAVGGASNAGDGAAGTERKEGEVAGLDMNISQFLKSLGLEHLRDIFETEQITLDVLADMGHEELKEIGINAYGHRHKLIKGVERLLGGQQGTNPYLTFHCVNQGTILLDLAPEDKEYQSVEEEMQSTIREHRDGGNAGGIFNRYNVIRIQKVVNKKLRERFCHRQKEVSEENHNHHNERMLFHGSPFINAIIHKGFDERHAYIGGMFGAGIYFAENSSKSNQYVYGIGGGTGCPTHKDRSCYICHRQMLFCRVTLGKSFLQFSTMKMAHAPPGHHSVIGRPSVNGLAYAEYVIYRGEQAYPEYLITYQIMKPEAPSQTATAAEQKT
# PRMT9: Protein arginine N-methyltransferase 9 (PRMT9, Homo sapiens, UniProt Q6P2P2)
# Chain of UniProt Q6P2P2 (whole entry, looked up): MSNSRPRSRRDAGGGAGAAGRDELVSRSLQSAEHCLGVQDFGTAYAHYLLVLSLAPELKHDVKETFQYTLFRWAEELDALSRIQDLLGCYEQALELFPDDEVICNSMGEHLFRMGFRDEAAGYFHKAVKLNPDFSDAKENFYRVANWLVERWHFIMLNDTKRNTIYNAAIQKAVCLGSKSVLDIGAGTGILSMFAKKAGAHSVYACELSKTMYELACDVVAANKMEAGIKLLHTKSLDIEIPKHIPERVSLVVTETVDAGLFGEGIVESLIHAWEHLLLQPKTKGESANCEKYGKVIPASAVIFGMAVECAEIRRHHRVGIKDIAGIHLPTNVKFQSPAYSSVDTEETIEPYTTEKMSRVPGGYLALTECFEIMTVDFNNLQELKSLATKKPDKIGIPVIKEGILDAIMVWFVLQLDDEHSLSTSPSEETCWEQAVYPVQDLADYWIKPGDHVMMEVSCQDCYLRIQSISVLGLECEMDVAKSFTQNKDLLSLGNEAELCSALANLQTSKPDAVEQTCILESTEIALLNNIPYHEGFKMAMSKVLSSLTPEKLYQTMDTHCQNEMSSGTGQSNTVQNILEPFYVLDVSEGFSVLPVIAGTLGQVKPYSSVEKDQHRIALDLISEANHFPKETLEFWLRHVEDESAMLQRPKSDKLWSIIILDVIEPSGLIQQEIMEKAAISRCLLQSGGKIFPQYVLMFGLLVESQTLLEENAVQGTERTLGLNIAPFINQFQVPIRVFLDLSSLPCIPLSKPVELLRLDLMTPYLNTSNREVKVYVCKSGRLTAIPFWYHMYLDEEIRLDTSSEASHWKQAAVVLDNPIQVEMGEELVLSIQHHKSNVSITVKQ
# Genome polyprotein NS2B-NS3 protease: Genome polyprotein, NS2B-NS3 protease (dengue virus type 2, UniProt P29990)
# HDAC11: Histone deacetylase 11 (HDAC11, Homo sapiens, UniProt Q96DB2)
# Chain of UniProt Q96DB2 (whole entry, looked up): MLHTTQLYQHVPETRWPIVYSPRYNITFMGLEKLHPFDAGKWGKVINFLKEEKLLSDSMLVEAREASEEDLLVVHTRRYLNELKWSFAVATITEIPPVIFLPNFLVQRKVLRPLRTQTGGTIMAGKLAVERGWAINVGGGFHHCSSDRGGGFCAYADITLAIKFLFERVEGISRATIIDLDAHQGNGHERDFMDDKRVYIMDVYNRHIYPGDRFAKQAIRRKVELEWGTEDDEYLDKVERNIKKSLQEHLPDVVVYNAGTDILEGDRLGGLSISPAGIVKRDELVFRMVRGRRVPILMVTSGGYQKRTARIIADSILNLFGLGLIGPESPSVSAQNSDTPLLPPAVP
# Apeh: Acylamino-acid-releasing enzyme (Apeh, Mus musculus, UniProt Q8R146)
# Chain of UniProt Q8R146 (whole entry, looked up): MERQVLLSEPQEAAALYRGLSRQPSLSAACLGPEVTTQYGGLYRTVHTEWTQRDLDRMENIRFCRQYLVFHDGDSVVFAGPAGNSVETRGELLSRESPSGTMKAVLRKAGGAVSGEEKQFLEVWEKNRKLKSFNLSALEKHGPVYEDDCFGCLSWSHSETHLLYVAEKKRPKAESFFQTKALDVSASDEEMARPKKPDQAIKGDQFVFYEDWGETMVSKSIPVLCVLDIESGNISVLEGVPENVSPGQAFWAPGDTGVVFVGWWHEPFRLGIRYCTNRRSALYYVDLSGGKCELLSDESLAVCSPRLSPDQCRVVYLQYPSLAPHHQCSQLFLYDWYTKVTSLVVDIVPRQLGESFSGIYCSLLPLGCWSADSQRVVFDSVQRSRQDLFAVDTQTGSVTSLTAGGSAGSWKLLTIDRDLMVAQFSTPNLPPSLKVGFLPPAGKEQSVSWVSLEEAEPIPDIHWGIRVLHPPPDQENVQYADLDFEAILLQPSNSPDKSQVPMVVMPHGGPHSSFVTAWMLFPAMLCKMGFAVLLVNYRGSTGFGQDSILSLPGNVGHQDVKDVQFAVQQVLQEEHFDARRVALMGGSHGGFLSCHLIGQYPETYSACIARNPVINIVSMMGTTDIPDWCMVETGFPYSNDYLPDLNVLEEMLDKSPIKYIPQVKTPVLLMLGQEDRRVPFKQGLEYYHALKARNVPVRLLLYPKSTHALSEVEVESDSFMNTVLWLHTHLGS
# TRPV4: Transient receptor potential cation channel subfamily V member 4 (TRPV4, Homo sapiens, UniProt Q9HBA0)
# Chain of UniProt Q9HBA0 (whole entry, looked up): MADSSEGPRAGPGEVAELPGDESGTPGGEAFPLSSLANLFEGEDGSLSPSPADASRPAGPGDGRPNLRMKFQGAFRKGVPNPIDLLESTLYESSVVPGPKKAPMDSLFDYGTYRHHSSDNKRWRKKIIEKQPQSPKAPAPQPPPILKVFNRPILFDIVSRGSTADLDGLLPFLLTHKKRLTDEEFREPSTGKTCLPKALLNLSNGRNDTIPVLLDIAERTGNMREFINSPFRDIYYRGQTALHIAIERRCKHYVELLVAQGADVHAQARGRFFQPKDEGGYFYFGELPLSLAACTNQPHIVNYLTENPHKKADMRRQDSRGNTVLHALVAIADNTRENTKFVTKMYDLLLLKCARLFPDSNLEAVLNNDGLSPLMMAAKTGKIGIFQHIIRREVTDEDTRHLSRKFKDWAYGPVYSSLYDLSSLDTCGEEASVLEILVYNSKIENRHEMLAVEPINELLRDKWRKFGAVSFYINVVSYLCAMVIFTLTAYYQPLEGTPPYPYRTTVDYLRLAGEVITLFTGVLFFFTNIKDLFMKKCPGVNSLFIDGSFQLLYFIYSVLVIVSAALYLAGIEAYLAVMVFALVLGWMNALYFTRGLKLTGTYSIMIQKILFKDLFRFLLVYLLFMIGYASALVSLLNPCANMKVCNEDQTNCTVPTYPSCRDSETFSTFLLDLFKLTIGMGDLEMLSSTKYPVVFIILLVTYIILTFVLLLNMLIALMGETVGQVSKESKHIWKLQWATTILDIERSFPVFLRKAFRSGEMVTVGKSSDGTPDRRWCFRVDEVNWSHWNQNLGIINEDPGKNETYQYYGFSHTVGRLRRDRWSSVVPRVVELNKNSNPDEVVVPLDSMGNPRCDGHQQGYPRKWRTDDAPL
# Chain of UniProt Q13148 (whole entry, looked up): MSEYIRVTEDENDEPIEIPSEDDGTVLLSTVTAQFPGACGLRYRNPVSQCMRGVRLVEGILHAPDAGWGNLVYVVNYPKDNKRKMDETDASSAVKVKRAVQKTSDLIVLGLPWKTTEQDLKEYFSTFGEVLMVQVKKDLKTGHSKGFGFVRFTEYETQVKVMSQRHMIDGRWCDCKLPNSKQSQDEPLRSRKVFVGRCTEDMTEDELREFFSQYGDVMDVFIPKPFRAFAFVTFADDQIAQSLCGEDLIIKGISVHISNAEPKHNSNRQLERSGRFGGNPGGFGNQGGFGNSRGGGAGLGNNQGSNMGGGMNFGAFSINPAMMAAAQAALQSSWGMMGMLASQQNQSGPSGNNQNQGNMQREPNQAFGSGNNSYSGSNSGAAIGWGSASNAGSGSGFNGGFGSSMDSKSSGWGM
Compound,target,test,system,setting,how to read,inhibition
O=C(NC1CCC1)[C@H](Cc1c[nH]c2ccccc12)NC(=O)[C@H](CCCCNC(=S)NCc1cc(F)c(O)c(F)c1)NS(=O)(=O)c1cccc(F)c1,SIRT5,"enzyme activity, inhibitor",,100 µM,,< 0%
CCn1cc(-c2cccc(C(F)(F)F)c2)c2sc(C(=N)NC3CCS(=O)(=O)CC3)cc2c1=O,"Chromatin remodeling regulator CECR2 (CECR2, Homo sapiens, UniProt Q9BXF3)",,,1 µM,,99.3%
OCC1OC(n2cnc3c(NCc4ccc(Br)s4)ncnc32)C(O)C1O (stereo not drawn),"Adenosine receptor A2a (ADORA2A, Homo sapiens, UniProt P29274)","ligand displacement, radioligand",,10 µM,,71%
Cc1cc(C(=O)NCCNC(=O)c2cccc(COc3ccccc3C(N)=O)c2)n[nH]1,TNKS,"enzyme activity, inhibitor",,0.5 µM,,100%
O=C1c2sc(-c3ccc(N4CCC(CO)CC4)nc3F)nc2CCN1c1cccnc1,"L-type Ca2+ channel, benzothiazepine (diltiazem) site","radioligand binding, BioPrint binding panel",,"1 µM, together with: antagonist radioligand",,-1%
COc1ccc2nc(C)ccc2c1Nc1sn(C)c(=O)c1C#N,TNKS,"enzyme activity, inhibitor",,10 µM,,5%
O=C(CC1CC2CCC1C2)NCCNC(=O)Cn1c(=O)[nH]c(=O)c2ccccc21 (stereo not drawn),TNKS,"enzyme activity, inhibitor",,50 nM,,2%
CC1Cc2ccccc2N1C(=O)CN1CCN(c2ccccc2)CC1 (stereo not drawn),"D(1A) dopamine receptor (DRD1, Homo sapiens, UniProt P21728)",radioligand binding,,"concentration not given, together with: [3H]SCH23390",,-1%
CCCCCCCCCCCCCC(=S)NCCCC[C@H](NS(C)(=O)=O)C(=O)N[C@H](C)C(=O)N[C@@H](CCCNC(=N)N)C(N)=O,SIRT5,"enzyme activity, inhibitor",,100 µM,,< 5%
C=CC(=O)Nc1cc(-c2nn(C3CCN(CCNC(=O)[C@H](C)CCC45CC6CC(CC(C6)C4)C5)CC3)c3ncnc(N)c23)ccc1Oc1ccccc1,"Diacylglycerol kinase alpha (DGKA, Homo sapiens, UniProt P23743)","inhibitor, KiNativ profiling",biochemical,2 µM,,7.3%
COCC(=O)N1CCc2cc(-c3csc(NC(=O)c4cc(OC)cc(OC)c4)n3)ccc21,"Thyroid hormone receptor beta (Rattus norvegicus, UniProt P18113)",,rat,10 µM,,10%
C/C=C/C(=O)Nc1ccc2nc(NCCCCCN(C)C)nc(NCCCCCCN(C)C)c2c1,PRMT9,"enzyme activity, inhibitor, radiometric",,10 µM,,42%
NC(=O)c1cccc(NC(=O)c2cc(-c3ccc(Br)cc3)n(-c3ccccc3)n2)c1,Genome polyprotein NS2B-NS3 protease,reporter gene,HeLa,12.5 µM,,49%
CC(=O)N[C@H](C(=O)N[C@@H](CO)C(=O)N[C@@H](Cc1ccccc1)C(=O)N[C@H]1CCCCNC(=N)NCCCCNC(=N)NCCCC[C@@H](C(=O)N[C@@H](CC(C)C)C(=O)N[C@@H](CC(C)C)C(=O)N[C@@H](CO)C(=O)N2CCC[C@H]2C(N)=O)NC(=O)[C@H](Cc2c[nH]c3ccccc23)NC(=O)[C@H](Cc2ccc(O)cc2)NC(=O)[C@H](CCC(=O)O)NC1=O)[C@@H](C)O,"E3 ubiquitin-protein ligase Mdm2 (MDM2, Homo sapiens, UniProt Q00987)","protein-protein interaction, inhibitor, TR-FRET",,0.1 µM,,≥ 90%
CC(C)(C)c1cccc(OS(=O)(=O)Oc2cc(F)cc(C(=O)NO)c2)c1,HDAC11,,,5 µM,,48%
CN1CCN(C(=O)n2ccnn2)CC1,Apeh,"serine hydrolase activity, inhibitor, competitive gel-based ABPP",mouse T-cell proteome,"1 µM, 30 min, 37 °C",,< 50%
NCc1ccc(CNC(=O)c2cc(-c3ccccc3)n(-c3ccccc3)n2)cc1,Genome polyprotein NS2B-NS3 protease,reporter gene,HeLa,12.5 µM,,39%
Cc1nc2c(F)cc(-c3nc(Nc4ccc(CNC(=O)CCCCCCC(=O)NO)cc4)ncc3F)cc2n1C(C)C,"Mitogen-activated protein kinase 1 (Mapk1, Mus musculus, UniProt P63085)","enzyme activity, inhibitor",,1 µM,,40%
O=C1c2sc(-c3ccc(N4CCC(F)C4)nc3F)nc2CCN1c1cccnc1 (stereo not drawn),"TAR DNA-binding protein 43, aggregated (TARDBP, Homo sapiens, UniProt Q13148)",radioligand binding,"homogenate, FTLD-TDP, type A","125 nM, together with: [3H]ACI-19626",,45.2% and 37.6%
C[Si]1(C[C@H](CN)CC(=O)O)CCCC1,"Substance-K receptor (TACR2, Homo sapiens, UniProt P21452)","ligand displacement, radioligand",,70 µM,,-3%
N=C(N)NCc1cccc(CNC(=O)c2cc(-c3ccccc3)n(-c3ccccc3)n2)c1,Genome polyprotein NS2B-NS3 protease,"enzyme activity, fluorogenic AMC substrate",,50 µM,,36%
O=C(NCCCCc1ccccc1)n1c(=O)oc2cc(-c3ccc(F)cc3)ccc21,phospholipase C,enzyme activity,,10 µM,,-19.7%
O=C(NO)c1cncc(OS(=O)(=O)Oc2ccc(Br)cc2)c1,HDAC11,,,10 µM,,45%
C=CC(=O)N1Cc2nc(-c3cc(-c4cc(Cl)cnc4Cl)c(F)cc3F)n(-c3ccncn3)c2C1,"Kinase suppressor of Ras 2 (KSR2, Homo sapiens, UniProt Q6VAB6)","cell-free assay, inhibitor",,1 µM,,6.6%
NC(=O)c1cccc(NC(=O)c2cc(-c3ccc4c(c3)OCCO4)n(-c3ccccc3)n2)c1,Genome polyprotein NS2B-NS3 protease,"enzyme activity, fluorogenic AMC substrate",,50 µM,,62%
CCCCCCCCCCCCCCCC(=O)N[C@@H](CCCCN)C(=O)N[C@@H](CCCCN)C(=O)N[C@@H](CO)C(=O)N[C@@H](CCCNC(=N)N)C(=O)N[C@@H](C)C(=O)N[C@@H](CC(C)C)C(=O)N[C@@H](Cc1ccccc1)C(N)=O,"Proteinase-activated receptor 4 (F2RL3, Homo sapiens, UniProt Q96RI0)","platelet aggregation, ex vivo LTA",human,"0.3 mg/kg, 4 to 6 h, together with: AYPGKF 160 µM",relative to: baseline,18%
N=C(N)NCCCC(NC(=O)C(CC(=O)NO)Cc1ccc2ccccc2c1)C(=O)NC(Cc1c[nH]c2ccccc12)C(=O)NC(CCC(=O)O)C(N)=O (stereo not drawn),"Stromelysin-2 (Homo sapiens, UniProt P09238)",,,1 µM,,10%
O=C(c1cc(-c2ccccc2)n(-c2ccccc2)n1)N(Cc1ccccn1)CC1CCCO1 (stereo not drawn),Genome polyprotein NS2B-NS3 protease,reporter gene,HeLa,12.5 µM,,3%
O=C(N1CCOCC1)n1ccnn1,Apeh,"serine hydrolase activity, inhibitor, competitive gel-based ABPP",mouse T-cell proteome,"1 µM, 30 min, 37 °C",,< 50%
C[Si](C)(C)C[C@@H](CN)CC(=O)O,"Cannabinoid receptor 2 (CNR2, Homo sapiens, UniProt P34972)","ligand displacement, radioligand",,75 µM,,11%
NC(=O)[C@@H](O)C[C@H]1CCc2sc3ncnc(O[C@H]4CC[C@H](N5CCOCC5)CC4)c3c21,"Receptor tyrosine-protein kinase erbB-2 (ERBB2, Homo sapiens, UniProt P04626)","enzyme activity, inhibitor",,10 µM,,-32%
CC(=O)[C@]12NC(C)(C)C[C@@]1(C)C(=O)C1=C2c2c(c3c4n2C(C)(C)CC2=C4[C@@]4(CC(C)(C)N[C@@](C)(C4)C2=O)CC3(C)C)C(=O)C(C)(C)N1 (racemic),TRPV4,"ion current, inhibitor, patch clamp",HEK-293T,10 µM,,9.53%
C/C1=C\CC/C(C)=C/CC(C)(C)/C=C/C1,TRPV4,"ion current, inhibitor, outside-out patch clamp",,"100 µM, together with: GSK1016790A 1 µM",,96 ± 3%
O=C(Nc1cccc(N2CCOCC2)c1)c1cc(-c2ccccc2)n(-c2ccccc2)n1,Genome polyprotein NS2B-NS3 protease,reporter gene,HeLa,12.5 µM,,49 ± 13%
CC(C)Cn1c(SCC(=O)N2CCc3ccccc3C2)nc2cc(Cl)ccc2c1=O,"Alpha-1D adrenergic receptor (ADRA1D, Homo sapiens, UniProt P25100)","ligand displacement, radioligand",,10 µM,,-19%
CC(C)(C)c1ccccc1OS(=O)(=O)Oc1cccc(C(=O)NO)c1,HDAC11,,,10 µM,,24%
CN(C)C/C=C/C(=O)Nc1ccc2nc(NCCCCCN(C)C)nc(NCCCCCCN(C)C)c2c1,PRMT9,"enzyme activity, inhibitor, radiometric",,50 µM,,81%
Cc1cc(C(=O)N[C@H](C(=O)Nc2cccc(C(N)=O)c2)c2ccc(OCc3ccccc3)cc2)n(Cc2ccccc2)n1,Genome polyprotein NS2B-NS3 protease,"enzyme activity, fluorogenic AMC substrate",,50 µM,,94%
CO[C@@H](C)c1c(NC(=O)Nc2cnc(-n3nccn3)c(C(F)(F)F)c2)cnc2sc(C)nc12,"Vasoactive intestinal polypeptide receptor 1 (VIPR1, Homo sapiens, UniProt P32241)","ligand displacement, radioligand",,10 µM,,2.4%
Cc1cccc(O[C@H]2CCC[C@@H](C(C)CNCc3ccncc3)C2)c1 (relative stereo),"PAS domain-containing serine/threonine-protein kinase (PASK, Homo sapiens, UniProt Q96RG2)","enzyme activity, inhibitor",,1 µM,,0%
CCOC(=O)c1cnc(NCc2cccc(NC(=O)c3cc(-c4ccccc4)n(-c4ccccc4)n3)c2)nc1,Genome polyprotein NS2B-NS3 protease,reporter gene,HeLa,12.5 µM,,51%
CCn1cc(C(=O)O)c(=O)c2c(N)c(F)c(NC3CCCCC3)cc21,"Cyclin-dependent kinase 4, with cyclin D2 (CDK4, Homo sapiens, UniProt P11802)",kinase activity,,"0.1 µM, together with: ATP at Km",,20.4%

# Repeated from above:
Compound,target,test,system,setting,how to read,inhibition
NC(=O)[C@@H](O)C[C@H]1CCc2sc3ncnc(O[C@H]4CC[C@H](N5CCOCC5)CC4)c3c21,"Receptor tyrosine-protein kinase erbB-2 (ERBB2, Homo sapiens, UniProt P04626)","enzyme activity, inhibitor",,10 µM,,-32%
CC(=O)[C@]12NC(C)(C)C[C@@]1(C)C(=O)C1=C2c2c(c3c4n2C(C)(C)CC2=C4[C@@]4(CC(C)(C)N[C@@](C)(C4)C2=O)CC3(C)C)C(=O)C(C)(C)N1 (racemic),TRPV4,"ion current, inhibitor, patch clamp",HEK-293T,10 µM,,9.53%
C/C1=C\CC/C(C)=C/CC(C)(C)/C=C/C1,TRPV4,"ion current, inhibitor, outside-out patch clamp",,"100 µM, together with: GSK1016790A 1 µM",,96 ± 3%
